Assay results gathered from unrelated publications.
Each numbered part is a random draw from the data of one study; scales do not carry over between parts. Changes are numbered by the printed parent chain.

Study 1
Target: CCNA2, cyclin fold, Cln2 fusion (human)
Technique: yeast growth competition, sequencing
Matrix: yeast
Setting: strong parent motif
Reference: not given
Direction: higher = stronger binding
Starting sequence: CDKN1B docking peptide (human); PSACRNLFGPVDH; partner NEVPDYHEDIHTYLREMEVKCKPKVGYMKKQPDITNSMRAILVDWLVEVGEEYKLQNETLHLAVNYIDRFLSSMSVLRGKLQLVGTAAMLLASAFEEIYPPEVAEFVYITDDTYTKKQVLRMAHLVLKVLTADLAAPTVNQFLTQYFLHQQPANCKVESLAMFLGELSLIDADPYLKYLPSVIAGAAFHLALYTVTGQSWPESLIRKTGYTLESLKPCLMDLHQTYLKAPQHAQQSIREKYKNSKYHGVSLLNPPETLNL
| Change | normalised enrichment score |
| --- | --- |
| V11A | 3.67 |
| D12V | 3.4 |
| N6S | 3.05 |
| V11M | 3.68 |

Study 2
Target: Interferon regulatory factor 5, full length, phosphomimetic (IRF5, Homo sapiens, UniProt Q13568-2, residues 1-514, K96S/S451D/S453D/S456D/S462D)
Technique: protein-binding microarray
Form: double-stranded DNA, one strand shown
Matrix: in vitro
Concentration: 250 nM
Setting: 60-bp whole probe
Together with: salmon DNA 0.4 mg/ml
Reference: random background probes
Direction: higher = stronger binding
All sequences stand within: GCCTAGCAC … GTCTTGATTCGCTTGACGCTGCTG
| Oligonucleotide | log fluorescence [z-score] |
| --- | --- |
| CACTTTTCCTACATCAGCTGGTGCTAG | 1.09 |
| GACGGTTTCGACTATCGCGACGTGCTA | 6.29 |
| ATACCTTAGGTTTTCTGGTTGTGCTAG | 0.488 |
| TCAGGTCTCCTTTTCCTTTAGTGCTAG | 0.358 |
| TTGCCTTTTGCTTTACTGATGTGCTAG | 1.4 |
| GGTTTTTTTTTAATTGAAATGTGCTAG | 0.786 |
| TTAGATTTCAGACTGGATCAGTGCTAG | 0.247 |

Study 3
Target: RING finger protein unkempt homolog, zinc fingers 1-6, SBP tag (UNK, Homo sapiens, UniProt Q9C0B0, residues 30-357)
UniProt Q9C0B0, sequence (30-357, looked up): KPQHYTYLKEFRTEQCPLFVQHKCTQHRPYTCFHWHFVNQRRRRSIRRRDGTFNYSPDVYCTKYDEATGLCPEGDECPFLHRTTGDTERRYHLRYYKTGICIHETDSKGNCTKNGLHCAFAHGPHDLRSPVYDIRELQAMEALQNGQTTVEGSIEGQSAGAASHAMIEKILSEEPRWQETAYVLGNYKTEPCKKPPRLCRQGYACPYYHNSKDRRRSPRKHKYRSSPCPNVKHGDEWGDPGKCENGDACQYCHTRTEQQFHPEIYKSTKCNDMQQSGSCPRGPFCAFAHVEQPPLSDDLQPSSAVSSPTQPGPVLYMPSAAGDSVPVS
Technique: RNA Bind-n-Seq
Form: RNA
Matrix: in vitro
Concentration: 100 nM
Setting: RNA with constant flanks, vertebrate orthologous sites, ends assumed
Reference: input RNA pool
Direction: higher = stronger binding
| Oligonucleotide | bound/input enrichment [ratio] |
| --- | --- |
| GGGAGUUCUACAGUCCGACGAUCCGAAAGUUAGAGCAAAAGAGCCAAGCAGUAGAAUAUUUUUUUUGUAAAUGUAAAACUAAUUAGAUCCAGACUUUGUUUCCUUCUUCAGUUUUAAAAAUAAAAAAAUACCUCAGUGCUAUGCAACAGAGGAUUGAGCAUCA | 0.54 |
| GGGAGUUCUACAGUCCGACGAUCCCCCAGUUUGUAUGUACAUUAUUCAUAUUCCUCGUUGUGUUUCGGGGGGAAAAGACAUUUUAGCCUUUUUUAAAAGUUACUGAUUUAAUUUCAUGUUAUUUGGUUGCAUGAAGUUGCCCUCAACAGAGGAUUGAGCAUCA | 0.641 |
| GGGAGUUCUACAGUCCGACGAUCUUGACUUCGGACGUCCGCCCUUCCUCGGCGCGAAGGCUGUUCAGUCCCGGGGUUUGCAAGUUUGUCGUUCUCUCCGGGACUCGAGGCUCCUGCCGCAGCCAUGAUCCGCCAGAUCAUCGGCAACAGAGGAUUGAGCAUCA | 0.0898 |
| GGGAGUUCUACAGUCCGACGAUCCUCCUCUUAAUCCCAUCUCAUCUGUUUCAUAGUGCUGCAAUUCCACCUUCAGCCUUAUUUUUAGUGAACUUAUUCUAAUUCUAGAGAAACUUCCAGUGGAUACUGUGAGCUAUAUGGAGACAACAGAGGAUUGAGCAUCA | 1.89 |
| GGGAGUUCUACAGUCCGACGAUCGCAUGCACAUGCCACUGUCACCAAAAGCAACUACCGUCUUCAAAACCUCCAAUAGCCUUCUUAGGAUUCUCUCCCUCUUUCCCUUCUGUUCCCCCGAUGCUUUAAAUGAUUAGAAGUCCUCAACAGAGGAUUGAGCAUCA | 1.78 |
| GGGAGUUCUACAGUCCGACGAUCAACCUCCUGAACUGCUCAAUUUCAAGCUGUGGCUGUUUUAGAUACUGGUUUUGUUUUCUUUACCAUUCUUCCCUGUUUUCCACCUUCUCUACCCCUCUUCCCAAGGUUUGACUCAUGGAUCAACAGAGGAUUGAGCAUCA | 0.93 |

Mixed results
| Substance | target | assay | system | conditions | scale | endpoint | result |
| --- | --- | --- | --- | --- | --- | --- | --- |
| PhoQ, residues 284 288 289 292 302 303 NLALSC | PhoP, residues 12 14 15 18 19 NHFRA (Escherichia coli, UniProt P23836) | Sort-seq, refers to: YFP reporter | E. coli | PhoQ-PhoP variant library, together with: 10 µM Mg2+ | reference: high Mg2+ state, higher = stronger signaling | fold induction | 6.08 |

Some of these lines once more (study 2):
| Oligonucleotide | log fluorescence [z-score] |
| --- | --- |
| CACTTTTCCTACATCAGCTGGTGCTAG | 1.09 |
| GACGGTTTCGACTATCGCGACGTGCTA | 6.29 |
